Experimental data of several laboratories.
Protocols differ between the studies behind these lines. Values joined by “and” are separate records of one study, mostly repeats; a detail may differ. ± marks the error that the study gave.
PLA2G5: Phospholipase A2 group V (PLA2G5, Homo sapiens, UniProt P39877)
UniProt P39877, sequence (whole entry, looked up): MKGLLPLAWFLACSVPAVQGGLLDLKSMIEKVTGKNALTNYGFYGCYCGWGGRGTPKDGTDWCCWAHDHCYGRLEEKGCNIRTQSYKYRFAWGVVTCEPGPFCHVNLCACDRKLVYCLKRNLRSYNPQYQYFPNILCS
Ubiquitin carboxyl-terminal hydrolase 39 ZnF-UBD domain: Ubiquitin carboxyl-terminal hydrolase 39, ZnF-UBD domain (Homo sapiens, UniProt Q53GS9)
UniProt Q53GS9, sequence (whole entry, looked up): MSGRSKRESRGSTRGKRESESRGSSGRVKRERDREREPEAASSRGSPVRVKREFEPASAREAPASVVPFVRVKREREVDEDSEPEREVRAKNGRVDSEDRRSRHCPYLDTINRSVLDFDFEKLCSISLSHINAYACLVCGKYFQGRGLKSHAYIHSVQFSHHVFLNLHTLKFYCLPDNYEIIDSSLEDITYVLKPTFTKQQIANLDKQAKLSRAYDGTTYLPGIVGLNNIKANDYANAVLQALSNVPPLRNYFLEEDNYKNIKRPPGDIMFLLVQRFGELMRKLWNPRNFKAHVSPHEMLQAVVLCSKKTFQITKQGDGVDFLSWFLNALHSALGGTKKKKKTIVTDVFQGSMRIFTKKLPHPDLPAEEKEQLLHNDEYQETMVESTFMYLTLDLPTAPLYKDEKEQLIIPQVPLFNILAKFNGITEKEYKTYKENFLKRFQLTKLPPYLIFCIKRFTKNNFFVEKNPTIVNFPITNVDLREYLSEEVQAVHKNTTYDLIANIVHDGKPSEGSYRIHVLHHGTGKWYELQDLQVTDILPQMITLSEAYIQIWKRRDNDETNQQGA
CSK: Tyrosine-protein kinase CSK (CSK, Homo sapiens, UniProt P41240)
UniProt P41240, sequence (whole entry, looked up): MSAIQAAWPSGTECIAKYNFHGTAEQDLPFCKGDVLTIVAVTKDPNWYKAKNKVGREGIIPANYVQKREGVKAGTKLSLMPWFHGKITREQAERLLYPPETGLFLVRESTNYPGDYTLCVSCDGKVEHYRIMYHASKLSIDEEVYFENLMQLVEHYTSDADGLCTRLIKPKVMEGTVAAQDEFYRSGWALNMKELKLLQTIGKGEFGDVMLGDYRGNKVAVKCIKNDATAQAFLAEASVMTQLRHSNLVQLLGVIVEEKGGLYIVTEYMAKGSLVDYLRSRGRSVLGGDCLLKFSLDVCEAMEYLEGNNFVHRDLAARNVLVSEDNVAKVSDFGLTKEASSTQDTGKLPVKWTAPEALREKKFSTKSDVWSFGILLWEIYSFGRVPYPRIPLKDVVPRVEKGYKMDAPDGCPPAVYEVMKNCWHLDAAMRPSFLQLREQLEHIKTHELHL
CA1: Carbonic anhydrase 1 (CA1, Homo sapiens, UniProt P00915)
UniProt P00915, sequence (whole entry, looked up): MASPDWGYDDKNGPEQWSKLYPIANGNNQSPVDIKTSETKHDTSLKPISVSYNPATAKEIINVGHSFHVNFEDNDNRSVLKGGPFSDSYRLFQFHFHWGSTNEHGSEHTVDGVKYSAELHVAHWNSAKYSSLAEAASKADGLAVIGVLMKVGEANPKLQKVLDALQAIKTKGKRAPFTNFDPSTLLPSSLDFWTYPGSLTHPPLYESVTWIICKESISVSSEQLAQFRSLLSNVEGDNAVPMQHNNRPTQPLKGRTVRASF
ABCG2: Broad substrate specificity ATP-binding cassette transporter ABCG2 (ABCG2, Homo sapiens, UniProt Q9UNQ0)
UniProt Q9UNQ0, sequence (whole entry, looked up): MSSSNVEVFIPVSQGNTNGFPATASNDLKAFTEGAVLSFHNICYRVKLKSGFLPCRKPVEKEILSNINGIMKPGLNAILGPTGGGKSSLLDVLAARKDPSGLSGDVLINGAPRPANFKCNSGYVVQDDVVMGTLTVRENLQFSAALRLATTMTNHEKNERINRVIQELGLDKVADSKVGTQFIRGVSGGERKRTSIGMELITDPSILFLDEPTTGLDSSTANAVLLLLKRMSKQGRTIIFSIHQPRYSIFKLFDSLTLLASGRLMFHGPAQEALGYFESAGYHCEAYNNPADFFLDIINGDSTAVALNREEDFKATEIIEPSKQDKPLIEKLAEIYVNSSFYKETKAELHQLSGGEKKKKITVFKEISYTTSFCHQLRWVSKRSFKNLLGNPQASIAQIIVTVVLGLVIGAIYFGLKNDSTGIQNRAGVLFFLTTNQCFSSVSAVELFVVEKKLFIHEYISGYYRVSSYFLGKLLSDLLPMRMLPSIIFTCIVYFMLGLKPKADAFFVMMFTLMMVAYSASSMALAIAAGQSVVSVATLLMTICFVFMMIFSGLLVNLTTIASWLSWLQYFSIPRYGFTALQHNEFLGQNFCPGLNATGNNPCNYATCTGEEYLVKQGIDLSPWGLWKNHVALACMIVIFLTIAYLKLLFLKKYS
CYP2A6: Cytochrome P450 2A6 (CYP2A6, Homo sapiens, UniProt P11509)
UniProt P11509, sequence (whole entry, looked up): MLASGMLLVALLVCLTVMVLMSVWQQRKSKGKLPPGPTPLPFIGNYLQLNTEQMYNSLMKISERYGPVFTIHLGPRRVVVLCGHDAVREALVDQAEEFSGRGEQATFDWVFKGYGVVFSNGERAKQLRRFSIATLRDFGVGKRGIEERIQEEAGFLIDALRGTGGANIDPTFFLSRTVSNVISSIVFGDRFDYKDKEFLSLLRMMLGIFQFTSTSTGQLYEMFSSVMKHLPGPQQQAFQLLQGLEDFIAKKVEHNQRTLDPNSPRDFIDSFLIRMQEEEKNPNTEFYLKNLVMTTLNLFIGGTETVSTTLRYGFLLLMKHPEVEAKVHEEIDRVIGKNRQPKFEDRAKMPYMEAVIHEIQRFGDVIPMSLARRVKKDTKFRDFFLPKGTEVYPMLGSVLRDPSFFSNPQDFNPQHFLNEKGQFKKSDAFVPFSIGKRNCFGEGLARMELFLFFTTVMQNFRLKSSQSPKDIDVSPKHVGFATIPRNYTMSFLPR
PSMB6: Proteasome subunit beta type-6 (PSMB6, Homo sapiens, UniProt P28072)
UniProt P28072, sequence (whole entry, looked up): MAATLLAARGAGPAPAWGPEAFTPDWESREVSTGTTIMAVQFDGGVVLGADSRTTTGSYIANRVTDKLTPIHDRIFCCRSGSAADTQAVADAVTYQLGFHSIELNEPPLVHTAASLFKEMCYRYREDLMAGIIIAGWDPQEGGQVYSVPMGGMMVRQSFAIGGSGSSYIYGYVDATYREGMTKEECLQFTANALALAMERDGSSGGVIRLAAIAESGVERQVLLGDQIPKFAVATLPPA
KCNH2: Voltage-gated inwardly rectifying potassium channel KCNH2 (KCNH2, Homo sapiens, UniProt Q12809)
UniProt Q12809, sequence (whole entry, looked up): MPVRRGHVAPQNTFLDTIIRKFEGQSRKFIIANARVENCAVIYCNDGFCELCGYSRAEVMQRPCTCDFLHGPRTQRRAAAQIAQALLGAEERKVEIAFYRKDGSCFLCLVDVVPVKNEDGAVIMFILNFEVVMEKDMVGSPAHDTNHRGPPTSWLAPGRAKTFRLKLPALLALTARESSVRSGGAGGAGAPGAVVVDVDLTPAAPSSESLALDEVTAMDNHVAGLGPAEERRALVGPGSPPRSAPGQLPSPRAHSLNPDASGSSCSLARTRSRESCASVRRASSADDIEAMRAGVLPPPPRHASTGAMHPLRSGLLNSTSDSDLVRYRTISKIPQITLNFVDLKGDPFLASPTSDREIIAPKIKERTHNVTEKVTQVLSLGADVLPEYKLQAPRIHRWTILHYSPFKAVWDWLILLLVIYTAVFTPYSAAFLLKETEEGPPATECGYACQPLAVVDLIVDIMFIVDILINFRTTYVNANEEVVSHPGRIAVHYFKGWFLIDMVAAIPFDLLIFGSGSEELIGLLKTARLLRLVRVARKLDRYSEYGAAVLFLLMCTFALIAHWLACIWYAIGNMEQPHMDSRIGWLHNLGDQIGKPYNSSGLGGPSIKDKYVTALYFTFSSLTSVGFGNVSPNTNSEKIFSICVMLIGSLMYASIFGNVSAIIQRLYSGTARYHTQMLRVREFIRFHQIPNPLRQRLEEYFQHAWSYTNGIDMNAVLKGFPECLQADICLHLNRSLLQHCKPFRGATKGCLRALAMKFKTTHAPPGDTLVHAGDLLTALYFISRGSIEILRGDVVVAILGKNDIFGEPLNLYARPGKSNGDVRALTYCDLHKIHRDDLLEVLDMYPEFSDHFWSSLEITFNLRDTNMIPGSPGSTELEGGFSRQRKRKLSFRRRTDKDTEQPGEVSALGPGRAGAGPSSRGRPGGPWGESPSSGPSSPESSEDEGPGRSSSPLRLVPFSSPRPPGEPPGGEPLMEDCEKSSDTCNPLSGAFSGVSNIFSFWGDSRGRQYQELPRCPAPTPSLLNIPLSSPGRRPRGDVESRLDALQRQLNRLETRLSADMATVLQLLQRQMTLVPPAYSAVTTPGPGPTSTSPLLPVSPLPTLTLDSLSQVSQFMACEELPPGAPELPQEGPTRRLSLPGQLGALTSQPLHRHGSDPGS
SLC18A2: Synaptic vesicular amine transporter (SLC18A2, Homo sapiens, UniProt Q05940)
UniProt Q05940, sequence (whole entry, looked up): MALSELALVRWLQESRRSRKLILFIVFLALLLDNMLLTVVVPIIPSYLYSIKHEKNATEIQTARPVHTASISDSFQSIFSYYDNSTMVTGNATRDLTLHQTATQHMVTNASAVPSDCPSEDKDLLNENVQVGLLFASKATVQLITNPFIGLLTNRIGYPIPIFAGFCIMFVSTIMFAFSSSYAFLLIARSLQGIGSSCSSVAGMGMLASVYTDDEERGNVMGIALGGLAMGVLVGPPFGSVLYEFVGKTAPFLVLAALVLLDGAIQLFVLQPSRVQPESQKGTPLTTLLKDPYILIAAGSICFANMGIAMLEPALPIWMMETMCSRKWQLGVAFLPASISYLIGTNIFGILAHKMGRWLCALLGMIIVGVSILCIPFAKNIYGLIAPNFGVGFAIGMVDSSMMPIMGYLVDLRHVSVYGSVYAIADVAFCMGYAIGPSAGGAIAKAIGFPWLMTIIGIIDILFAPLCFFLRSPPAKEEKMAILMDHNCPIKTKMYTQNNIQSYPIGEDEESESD
UniProt Q86XQ3, sequence (whole entry, looked up): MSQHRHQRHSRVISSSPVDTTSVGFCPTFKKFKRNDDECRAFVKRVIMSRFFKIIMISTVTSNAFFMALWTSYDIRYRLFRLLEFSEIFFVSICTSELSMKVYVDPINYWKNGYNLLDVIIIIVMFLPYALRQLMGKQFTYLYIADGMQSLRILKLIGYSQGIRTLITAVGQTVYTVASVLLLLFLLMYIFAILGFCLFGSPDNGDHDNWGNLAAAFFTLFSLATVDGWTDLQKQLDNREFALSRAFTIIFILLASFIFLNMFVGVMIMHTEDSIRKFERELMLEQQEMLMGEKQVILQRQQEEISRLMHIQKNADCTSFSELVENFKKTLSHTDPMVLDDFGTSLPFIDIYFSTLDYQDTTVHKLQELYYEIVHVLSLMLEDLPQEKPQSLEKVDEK

SMILES	target	assay	system	conditions	how to read	quantity	result
c1ccc(CN(CCN(Cc2ccccn2)Cc2ccccn2)Cc2ccccn2)cc1	Proteasome subunit beta type-6, caspase-like site (PSMB6, Homo sapiens, UniProt P28072)	caspase-like activity, inhibitor, purified 20S proteasome		pH 7.4, with: 20 µM Z-LLE-AMC		IC50	> 1000 µM
O=c1nc(SCc2cc(F)cc(C(F)(F)F)c2)nc(SCc2ccc3nc(Cl)ccc3c2)[nH]1	TOP2A (Homo sapiens, UniProt P11388)	ATPase activity, ATP-competitive inhibitor		with: ATP 1 mM		IC50	31.2 µM
COc1cc(/C=N/n2c(C)nc3ccc(C)cc3c2=O)ccc1OCc1ccccc1	PLA2G5	enzyme activity, inhibitor, colorimetric				IC50	70.3 ± 1.89 µM
Cc1nc(F)ccc1-c1cc(C(=O)NCc2ccc(Cl)c(Cl)c2)ccc1Cn1ccn(C)c1=N	WD repeat-containing protein 5, MLL1 complex (WDR5, Homo sapiens, UniProt P61964)	MLL1 methyltransferase activity, inhibitor		with: H3 peptide substrate		IC50	> 3 µM
O=C(O)CCc1nccs1	Ubiquitin carboxyl-terminal hydrolase 39 ZnF-UBD domain					Kd	> 1000 µM
COc1ccc2c(c1)c1c(C)c3c[n+](C)ccc3c(C)c1n2C	Toll-like receptor 3 (Homo sapiens, UniProt O15455)	reporter gene, inhibitor	HEK-Blue hTLR3	with: poly(I:C)		IC50	1.92 ± 0.07 µM
Cc1ccc(S(=O)(=O)n2cc(/C=N/NC(=S)Nc3c(C)cccc3C)c3ccccc32)cc1	mushroom tyrosinase	enzyme activity, inhibitor		with: L-DOPA substrate		IC50	9.5 ± 0.26 µM
CN1CCN(c2ccc(Nc3ncc4cc(C#N)c(=O)n(C5CCCC5)c4n3)cc2)CC1	Cyclin-dependent kinase 4, with cyclin D3 (CDK4, Homo sapiens, UniProt P11802)					IC50	0.0341 µM
O=C(CCc1ccc(O)cc1)c1c(O)cc(O)cc1O[C@@H]1O[C@H](CO)[C@@H](O)[C@H](O)[C@H]1O	mushroom tyrosinase	enzyme activity, inhibitor		10 min, with: L-tyrosine		IC50	> 400 µg/mL
COc1ccc(F)cc1C(=O)NCc1ccc(-c2nn([C@@H](C)C(F)(F)F)c(N)c2C(N)=O)cc1	CSK	target engagement, NanoBRET tracer displacement	HEK293		above top tested dose	IC50	> 5 µM
OC1CCN(c2ccc(/C=N/NC(=S)NCc3ccccc3)cc2)CC1	CA1	enzyme activity, inhibitor				IC50	0.545 µM
COc1ccc2c3c([nH]c2c1)[C@H](CC(C)C)N1C(=O)[C@H](CC(=O)N2CCCCC2)NC(=O)[C@@H]1C3	ABCG2	inhibitor, measured: protoporphyrin IX	A549	2 h, with: 1 mM ALA		IC50	4.07 µM and 3.84 µM and 1.51 µM
C#Cc1ccc2ccccc2c1	CYP2A6	coumarin 7-hydroxylation		20 min, pH 7.4, 37 °C, with: coumarin 10 µM		IC50	8.8 µM
CC(C)(/C=C(\C#N)C(=O)N1CCC[C@@H](n2nc(-c3ccc(Oc4ccccc4)cc3F)c3c(N)ncnc32)C1)N1CCN(C2COC2)CC1	CSK					IC50	0.186 µM
CC[C@@H]1[C@H](F)C(=O)N[C@@H]1COc1nccc2cc(C(N)=O)c(OC)cc12	STK24 (Homo sapiens, UniProt Q9Y6E0)	ATP probe binding, KiNativ profiling, measured: MST3 Lys1 probe site	THP-1 cell lysate			IC50	> 5 µM
CC(=O)N1C[C@@H](CCN2CCC(c3c[nH]c4ccccc34)CC2)c2ccccc21	SLC6A4 (Homo sapiens, UniProt P31645)	inhibitor				IC50	1.86 µM
Cc1ncc(COP(=O)(O)O)c(C=O)c1O	PDX3 (Saccharomyces cerevisiae, UniProt P38075)	PNP oxidase activity, inhibitor		with: 4 mM PNP substrate, 0.4 mM FMN		IC50	2400 µM
CC(C)C[C@H](NC(=O)c1cc(Cl)ccc1Cl)C(=O)N[C@@H](CC(C)C)C(=O)N[C@H](/C=C/S(C)(=O)=O)Cc1ccc(CN)cc1	PSMB6	competitive ABPP	Raji cell lysate			IC50	> 10 µM
CNCC(=O)O	Sodium- and chloride-dependent glycine transporter 2 (Homo sapiens, UniProt Q9Y345, S479G)	[3H]glycine uptake, inhibitor				IC50	67 µM
OC1CCN(c2ccc(/C=N/NC(=S)Nc3cccc(Cl)c3Cl)cc2)CC1	CA1	enzyme activity, inhibitor				IC50	0.309 µM
COc1ccc(C[C@H](NC(=O)[C@H](C)NC(=O)CN2CCOCC2)C(=O)N[C@@H](CC2CCC(C(F)(F)F)CC2)C(=O)[C@@]2(C)CO2)cc1 (stereo partly shown)	PSMB6	competitive ABPP	Raji cell lysate			IC50	> 10 µM
Cc1nn(C)c2ncc(C(=O)NCC3CC(Br)=NO3)c(Cl)c12 (stereo not shown)	MDH2 (Sus scrofa, UniProt P00346)	enzyme activity, reporter counter-screen		native enzyme		IC50	> 63 µM
Nc1ccn([C@@H]2O[C@H](COP(=O)(O)OP(=O)(O)OP(=O)(O)O)[C@@H](O)[C@H]2O)c(=O)n1	dGTP triphosphohydrolase (Leeuwenhoekiella blandensis, UniProt A3XHN1)	dGTPase activity, inhibitor, enzyme-coupled		with: 1 mM dGTP		IC50	~3200 µM
CC(=O)Nc1ncc([N+](=O)[O-])s1	GSK3A (Homo sapiens, UniProt P49840)	kinase activity, inhibitor, Z'-LYTE				IC50	5.19 µM
Cc1ncc(C(=O)N[C@@H](CC2CCC3CCCCC3C2)C(=O)N[C@@H](CC(C)C)C(=O)N[C@H](/C=C/S(C)(=O)=O)Cc2ccc(CN)cc2)s1 (stereo partly shown)	PSMB6	competitive ABPP	Raji cell lysate			IC50	> 10 µM

SMILES	target	assay	system	conditions	how to read	quantity	result
Cc1ccc(S(=O)(=O)n2cc(/C=N/NC(=S)Nc3ccc(C)cc3C)c3ccccc32)cc1	mushroom tyrosinase	enzyme activity, inhibitor		with: L-DOPA substrate		IC50	19.4 ± 0.26 µM
COc1cc(N2CCC(N3CCN(C)CC3)CC2)ccc1Nc1ncc(Cl)c(Nc2ccccc2P(C)(C)=O)n1	ABCG2	transport, inhibitor	C2BBe1	with: cladribine substrate		IC50	10.1 µM
Cc1ccc(S(=O)(=O)n2cc(/C=N/NC(=S)Nc3ccccc3)c3ccccc32)cc1	mushroom tyrosinase	enzyme activity, inhibitor		with: L-DOPA substrate		IC50	42.2 ± 0.76 µM
CC1(F)CN(C(=O)Cn2c(=O)c(C(=O)NCc3ccc(Cl)cc3)cc3nc(N4CCN(CC(=O)O)C4=O)cnc32)C1	KCNH2	ion current, automated patch clamp	CHO expressing hERG			IC50	24 µM
COc1cc2c(cc1OC)C1CC(=O)C(CC(C)C)CN1CC2 (stereo not shown)	SLC18A2	binding, competition binding	cell membranes	4 °C, with: 3 nM [3H]dihydrotetrabenazine		IC50	0.165 µM
CCOc1cc(-c2nncn2C)ccc1Nc1ncc2cc(C)nc(NCC(C)(C)C)c2n1	CYP2A6	enzyme activity, inhibitor				IC50	> 50 µM
O=C(NCCCCCCO)c1cc2ccccc2oc1=O	PDE6D (Homo sapiens, UniProt O43924)					IC50	855 µM
CC(C)C[C@H](NC(=O)[C@@H](O)[C@H](N)Cc1ccccc1)C(=O)O	rat neuron-specific aminopeptidase	enzyme activity, inhibitor				IC50	0.2 µM
O=P(O)(O)O[C@@H]1[C@H](O)[C@H](O)[C@@H](OP(=O)(O)O)[C@H](OP(=O)(O)O)[C@H]1O	Inositol-tetrakisphosphate 1-kinase (Homo sapiens, UniProt Q13572)	phosphatase activity, inhibitor, luciferase-coupled				IC50	0.23 ± 0.05 µM
Cc1c(OCC(F)(F)F)ccnc1CSc1nc2ccccc2[nH]1	cytochrome bc1 complex (Mycolicibacterium smegmatis, UniProt A0R052+I7GD61)	oxygen consumption, inhibitor, Clark electrode	Mycolicibacterium smegmatis, purified supercomplex			IC50	0.5 ± 0.2 µM
Cc1ncc(C(=O)N[C@@H](CC2CCCC3CCCCC32)C(=O)N[C@@H](CC(C)C)C(=O)N[C@H](/C=C/S(C)(=O)=O)Cc2ccc(CN)cc2)s1 (stereo partly shown)	PSMB6	competitive ABPP	Raji cell lysate			IC50	> 10 µM
NS(=O)(=O)c1ccc(NCC(=O)O)cc1	Ubiquitin carboxyl-terminal hydrolase 39 ZnF-UBD domain					Kd	> 1000 µM
Cc1cnc(-c2ccc(-c3ccc(NC(=O)Nc4c(F)cc(F)cc4F)cc3F)c3c2C(=O)NC3)[nH]1	CSF1R (Homo sapiens, UniProt P07333)	enzyme activity, inhibitor, mobility shift		with: ATP 1 mM		IC50	0.0445 µM
C=CC(=O)Nc1cc(Nc2nccc(-c3cn(C)c4ccccc34)n2)c(OC)cc1N(C)CCN(C)C	ABCG2	transport				IC50	2 µM
Cc1nc(F)ccc1-c1cc(Cn2ccn(C)c2=N)cc(C(=O)NCc2ccc(Cl)c(Cl)c2)c1	WD repeat-containing protein 5, MLL3 complex (WDR5, Homo sapiens, UniProt P61964)	MLL3 methyltransferase activity, inhibitor		with: H3 peptide substrate		IC50	> 20 µM
COC[C@H](NC(=O)[C@H](CC(C)C)NC(=O)[C@H](Cc1ccccc1)N=[N+]=[N-])C(=O)N[C@H](/C=C/S(C)(=O)=O)Cc1ccc(CN)cc1	PSMB6	competitive ABPP	Raji cell lysate			IC50	> 10 µM
COc1cc2c(cc1OC)C1CC(=O)C(CC(C)C)CN1CC2 (stereo not shown)	SLC18A2	FFN206 uptake, inhibitor	HEK293			IC50	0.135 µM
Cc1cccc(C)c1NC(=S)N/N=C/c1ccc(N2CCC(O)CC2)cc1	CA1	enzyme activity, inhibitor				IC50	0.482 µM
CC1(F)CN(C(=O)Cn2c(=O)c(C(=O)NCc3ccc(Cl)cc3)cc3nc(N4CCOC4=O)cnc32)C1	KCNH2	potassium current, inhibitor, automated patch clamp	CHO cells expressing hERG			IC50	5.6 µM
O=C(Nc1cccc(C(F)(F)F)c1)N1CCN(c2cccc(C(F)(F)F)c2)CC1	CatSper channel complex (Homo sapiens, UniProt Q7RTX7+Q86XQ3+Q8NEC5+Q96P56)	calcium influx, inhibitor, FLIPR	human sperm	with: high pH, high potassium		IC50	9.2 µM
COc1cc(NCC(=O)Nn2c(C)nc3ccc(Cl)cc3c2=O)cc(OC)c1OC	PLA2G5	enzyme activity, inhibitor, colorimetric				IC50	113 ± 1.41 µM
Cc1cc(N2CCc3c(c(C)nn3CC34CCC(NC(=O)[C@@H]5COCCN5)(CC3)CC4)C2)c2cnn(C)c2n1	TLR7 (Homo sapiens, UniProt Q9NYK1)	IFNα release, antagonist	healthy volunteers, whole blood	with: ssRNA		IC50	0.003 ± 0.001 µM
COc1ccc(C[C@H](NC(=O)[C@H](C)NC(=O)CN2CCOCC2)C(=O)N[C@@H](CC2CCC(C3CCCCC3)CC2)C(=O)[C@@]2(C)CO2)cc1 (stereo partly shown)	PSMB6	inhibitor, competitive ABPP	Raji cell lysate			IC50	> 100 µM
Cc1ccc(S(=O)(=O)n2cc(/C=N/NC(=S)Nc3ccc(Br)cc3)c3ccccc32)cc1	mushroom tyrosinase	enzyme activity, inhibitor		with: L-DOPA substrate		IC50	25.3 ± 0.38 µM
